# Measured values collected from several papers.
# Compare with care: the assays were run in different laboratories. ± marks the error that the study gave.
# Mitogen-activated protein kinase 14: Mitogen-activated protein kinase 14 (Rattus norvegicus, UniProt P70618)
# Sequence of UniProt P70618 (whole entry, looked up): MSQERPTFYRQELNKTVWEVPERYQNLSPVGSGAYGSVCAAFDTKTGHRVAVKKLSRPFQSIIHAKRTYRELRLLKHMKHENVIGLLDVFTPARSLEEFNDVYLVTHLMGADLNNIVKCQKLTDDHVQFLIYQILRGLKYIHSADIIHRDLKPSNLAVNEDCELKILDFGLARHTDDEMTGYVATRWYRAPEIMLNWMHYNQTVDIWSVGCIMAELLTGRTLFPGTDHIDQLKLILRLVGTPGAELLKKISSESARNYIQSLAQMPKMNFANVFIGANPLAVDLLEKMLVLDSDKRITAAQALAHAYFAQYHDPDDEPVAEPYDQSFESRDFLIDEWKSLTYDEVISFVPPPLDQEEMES
# CTSL: Procathepsin L (CTSL, Homo sapiens, UniProt P07711)
# Sequence of UniProt P07711 (whole entry, looked up): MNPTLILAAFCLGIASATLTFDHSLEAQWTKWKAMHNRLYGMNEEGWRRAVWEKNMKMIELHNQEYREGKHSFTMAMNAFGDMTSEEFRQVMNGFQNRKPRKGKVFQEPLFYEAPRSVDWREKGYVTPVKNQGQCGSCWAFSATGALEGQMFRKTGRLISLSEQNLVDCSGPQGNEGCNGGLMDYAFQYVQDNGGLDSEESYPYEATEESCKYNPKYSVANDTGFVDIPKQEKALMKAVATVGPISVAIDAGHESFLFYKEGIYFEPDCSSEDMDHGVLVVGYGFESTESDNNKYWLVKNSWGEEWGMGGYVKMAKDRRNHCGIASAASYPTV
# CA2: Carbonic anhydrase 2 (CA2, Homo sapiens, UniProt P00918)
# Sequence of UniProt Q4KMQ2 (whole entry, looked up): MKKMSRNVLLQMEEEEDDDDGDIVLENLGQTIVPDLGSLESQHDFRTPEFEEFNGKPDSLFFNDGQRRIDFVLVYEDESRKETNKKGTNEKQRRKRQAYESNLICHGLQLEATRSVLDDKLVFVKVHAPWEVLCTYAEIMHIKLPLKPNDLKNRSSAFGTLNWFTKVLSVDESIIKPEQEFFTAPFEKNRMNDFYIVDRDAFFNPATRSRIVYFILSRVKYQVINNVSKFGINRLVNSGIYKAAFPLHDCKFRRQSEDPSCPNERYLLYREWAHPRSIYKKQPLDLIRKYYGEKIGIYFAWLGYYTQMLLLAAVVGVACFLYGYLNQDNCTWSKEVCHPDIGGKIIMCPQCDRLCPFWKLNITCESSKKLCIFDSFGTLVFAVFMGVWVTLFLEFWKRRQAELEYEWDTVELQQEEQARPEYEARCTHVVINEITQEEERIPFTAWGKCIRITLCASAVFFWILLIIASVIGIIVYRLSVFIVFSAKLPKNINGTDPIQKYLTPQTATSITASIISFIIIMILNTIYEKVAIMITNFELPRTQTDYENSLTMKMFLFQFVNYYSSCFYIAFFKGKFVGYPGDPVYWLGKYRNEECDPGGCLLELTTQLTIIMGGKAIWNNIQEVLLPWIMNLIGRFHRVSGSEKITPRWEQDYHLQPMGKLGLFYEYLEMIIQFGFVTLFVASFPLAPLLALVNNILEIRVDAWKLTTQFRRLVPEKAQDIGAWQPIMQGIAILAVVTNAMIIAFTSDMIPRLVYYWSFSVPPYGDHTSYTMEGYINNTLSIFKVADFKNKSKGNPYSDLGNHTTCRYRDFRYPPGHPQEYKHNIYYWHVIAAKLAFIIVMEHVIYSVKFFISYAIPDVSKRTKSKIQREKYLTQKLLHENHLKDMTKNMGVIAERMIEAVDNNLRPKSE
# Sequence of UniProt P10635 (whole entry, looked up): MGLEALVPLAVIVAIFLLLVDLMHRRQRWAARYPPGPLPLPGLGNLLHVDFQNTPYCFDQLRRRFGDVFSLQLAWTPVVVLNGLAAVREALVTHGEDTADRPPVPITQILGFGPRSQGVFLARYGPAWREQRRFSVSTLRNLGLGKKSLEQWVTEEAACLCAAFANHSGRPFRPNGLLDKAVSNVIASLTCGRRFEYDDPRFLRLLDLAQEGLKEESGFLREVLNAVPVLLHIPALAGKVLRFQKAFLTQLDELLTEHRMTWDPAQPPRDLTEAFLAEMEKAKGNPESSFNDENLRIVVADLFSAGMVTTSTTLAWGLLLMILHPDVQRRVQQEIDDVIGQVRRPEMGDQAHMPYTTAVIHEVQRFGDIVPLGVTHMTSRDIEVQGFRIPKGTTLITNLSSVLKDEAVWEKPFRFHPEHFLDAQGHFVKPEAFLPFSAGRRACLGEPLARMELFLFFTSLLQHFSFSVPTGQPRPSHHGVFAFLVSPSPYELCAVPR
# Sequence of UniProt P28072 (whole entry, looked up): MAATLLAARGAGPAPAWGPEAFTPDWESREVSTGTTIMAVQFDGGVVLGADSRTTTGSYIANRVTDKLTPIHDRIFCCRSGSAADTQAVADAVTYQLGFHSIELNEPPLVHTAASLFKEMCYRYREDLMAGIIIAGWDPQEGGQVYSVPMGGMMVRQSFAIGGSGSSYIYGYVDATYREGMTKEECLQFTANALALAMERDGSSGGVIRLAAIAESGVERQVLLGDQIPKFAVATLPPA
# Sequence of UniProt Q9UQ49 (whole entry, looked up): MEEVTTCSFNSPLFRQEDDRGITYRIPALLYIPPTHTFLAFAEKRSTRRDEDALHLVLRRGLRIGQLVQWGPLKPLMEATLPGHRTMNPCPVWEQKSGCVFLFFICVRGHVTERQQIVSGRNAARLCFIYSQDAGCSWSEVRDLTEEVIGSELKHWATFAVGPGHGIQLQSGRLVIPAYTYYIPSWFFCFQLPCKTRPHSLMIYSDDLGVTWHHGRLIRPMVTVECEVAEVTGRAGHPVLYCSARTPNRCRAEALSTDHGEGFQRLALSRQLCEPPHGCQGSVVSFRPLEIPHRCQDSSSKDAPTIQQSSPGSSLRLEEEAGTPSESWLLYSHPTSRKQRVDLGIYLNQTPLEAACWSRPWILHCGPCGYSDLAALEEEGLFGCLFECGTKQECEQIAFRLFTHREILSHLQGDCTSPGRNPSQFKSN
# Sequence of UniProt P13631 (whole entry, looked up): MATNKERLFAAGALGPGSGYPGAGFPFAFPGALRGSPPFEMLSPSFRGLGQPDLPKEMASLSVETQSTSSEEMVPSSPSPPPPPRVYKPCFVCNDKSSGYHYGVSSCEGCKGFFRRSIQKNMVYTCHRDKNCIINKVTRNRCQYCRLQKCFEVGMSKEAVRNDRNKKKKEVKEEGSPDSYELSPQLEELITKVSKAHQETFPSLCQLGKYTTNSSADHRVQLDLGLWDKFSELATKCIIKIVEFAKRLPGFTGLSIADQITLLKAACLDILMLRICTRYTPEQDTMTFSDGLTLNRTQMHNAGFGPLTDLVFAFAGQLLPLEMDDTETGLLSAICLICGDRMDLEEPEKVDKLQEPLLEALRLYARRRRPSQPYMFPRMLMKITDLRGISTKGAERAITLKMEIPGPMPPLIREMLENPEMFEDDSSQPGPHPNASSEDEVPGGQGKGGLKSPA
# Sequence of UniProt P81908 (whole entry, looked up): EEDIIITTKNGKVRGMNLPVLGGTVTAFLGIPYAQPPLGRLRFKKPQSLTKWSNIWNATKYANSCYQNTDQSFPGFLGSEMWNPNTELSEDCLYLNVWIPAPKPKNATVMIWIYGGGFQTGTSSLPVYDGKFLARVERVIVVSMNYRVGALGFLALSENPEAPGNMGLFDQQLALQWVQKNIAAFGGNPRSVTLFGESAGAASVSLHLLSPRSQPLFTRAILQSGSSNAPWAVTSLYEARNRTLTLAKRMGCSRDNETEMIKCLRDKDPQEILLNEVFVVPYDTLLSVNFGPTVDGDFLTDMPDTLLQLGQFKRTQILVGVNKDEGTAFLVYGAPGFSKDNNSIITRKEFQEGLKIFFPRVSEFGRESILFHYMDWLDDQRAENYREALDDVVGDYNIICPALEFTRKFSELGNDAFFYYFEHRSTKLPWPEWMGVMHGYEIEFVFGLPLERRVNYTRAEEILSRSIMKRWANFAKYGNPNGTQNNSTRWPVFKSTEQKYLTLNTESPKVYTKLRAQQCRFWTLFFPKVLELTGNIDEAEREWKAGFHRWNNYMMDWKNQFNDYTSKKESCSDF
# Sequence of UniProt P48145 (whole entry, looked up): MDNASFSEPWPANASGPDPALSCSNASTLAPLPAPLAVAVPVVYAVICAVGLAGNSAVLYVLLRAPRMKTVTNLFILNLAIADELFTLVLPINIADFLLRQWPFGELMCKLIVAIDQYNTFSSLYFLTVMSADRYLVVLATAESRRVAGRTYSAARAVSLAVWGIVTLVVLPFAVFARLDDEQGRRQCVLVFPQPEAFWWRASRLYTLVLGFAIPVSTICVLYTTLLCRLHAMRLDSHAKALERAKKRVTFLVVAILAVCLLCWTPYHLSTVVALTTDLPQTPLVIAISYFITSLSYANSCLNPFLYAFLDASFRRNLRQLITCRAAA
# Sequence of UniProt P14618 (whole entry, looked up): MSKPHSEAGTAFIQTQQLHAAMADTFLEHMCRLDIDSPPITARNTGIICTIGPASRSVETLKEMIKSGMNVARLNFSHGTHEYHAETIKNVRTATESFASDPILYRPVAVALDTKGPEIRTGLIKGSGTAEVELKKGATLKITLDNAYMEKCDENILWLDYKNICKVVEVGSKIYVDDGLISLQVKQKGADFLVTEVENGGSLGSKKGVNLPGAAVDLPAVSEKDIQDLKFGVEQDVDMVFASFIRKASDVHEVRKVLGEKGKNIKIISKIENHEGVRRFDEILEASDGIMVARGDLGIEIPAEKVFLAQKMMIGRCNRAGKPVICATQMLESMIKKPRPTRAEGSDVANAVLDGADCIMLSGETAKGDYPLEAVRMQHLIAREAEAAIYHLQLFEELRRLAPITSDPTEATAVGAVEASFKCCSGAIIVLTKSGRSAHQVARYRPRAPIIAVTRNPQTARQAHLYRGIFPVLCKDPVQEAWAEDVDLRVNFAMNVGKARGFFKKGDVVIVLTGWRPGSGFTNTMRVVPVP
# Sequence of UniProt P25084 (whole entry, looked up): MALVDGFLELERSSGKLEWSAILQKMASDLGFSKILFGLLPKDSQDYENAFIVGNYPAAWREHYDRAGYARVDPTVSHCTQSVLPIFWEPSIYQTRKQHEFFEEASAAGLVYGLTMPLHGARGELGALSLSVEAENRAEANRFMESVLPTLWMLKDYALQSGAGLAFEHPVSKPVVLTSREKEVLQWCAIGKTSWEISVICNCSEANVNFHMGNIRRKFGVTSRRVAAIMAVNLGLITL
SMILES,target or system,test,system,conditions,endpoint,value
CC(C)C[C@H](NC(=O)[C@H](CC(C)C)NC(=O)[C@H](CC(C)C)NC(=O)[C@H](CCCNC(=N)N)NC(=O)[C@H](CCCCN)NC(=O)[C@@H]1CCCN1C(=O)[C@H](CCCCN)NC(=O)[C@@H]1CCCN1C(=O)CNC(=O)[C@H](CCCNC(=N)N)NC(=O)[C@H](CCCCN)NC(=O)[C@H](CCCNC(=N)N)NC(=O)[C@H](C)NC(=O)[C@@H](N)Cc1ccc(O)cc1)C(=O)N[C@@H](CCC(N)=O)C(=O)N[C@@H](CCCNC(=N)N)C(=O)O,Mitogen-activated protein kinase 14,"enzyme activity, inhibitor, fluorescence",,pH 7.4,IC50,3.64 µM
CN(C)CCCN1C(=O)CSC1c1cccc(Cl)c1 (stereo not drawn),"uncharacterized protein (Anopheles gambiae, UniProt Q7QFG0)","enzyme activity, inhibitor, Ellman",,with: 1 mM acetylthiocholine,IC50,7 µM
CCCN(CCCC[C@H](NC(=O)[C@H](CCCN1CCOCC1)NC(=O)[C@@H](NC(=O)[C@H](Cc1ccccc1)NC(=O)c1ccc(C(C)(C)C)cc1)C1CCC1)C(=O)N[C@@H](CO)C(N)=O)C1CC2CCC1C2 (stereo partly drawn),"Chromobox protein homolog 8 (Homo sapiens, UniProt Q9HC52)","ligand displacement, TR-FRET",,,IC50,0.43 µM
CCCCCCCCCCCCCCCCCC(=O)NC[C@H]1CC[C@H](C(=O)N[C@@H](CCC(=O)NCCCOCCOCCOCCCNC(=O)COCC(=O)N[C@@H](Cc2ccc(O)cc2)C(=O)NC(C)(Cc2ccccc2)C(=O)N[C@@H](CC(C)C)C(=O)N[C@@H](CCCC)C(=O)N[C@@H](CCCNC(=N)N)C(=O)N2CCC[C@H]2C(=O)N[C@@H](CCCNC(=N)NC)C(=O)N[C@@H](CC(N)=O)C(N)=O)C(=O)O)CC1 (stereo partly drawn),"NPBWR1 (Homo sapiens, UniProt P48145)","β-arrestin recruitment, antagonist",,with: 10 nM neuropeptide W-23,IC50,2.6 µM
CC(C)C[C@H](NC(=O)[C@H](CO)NC(=O)[C@H](CC(C)C)NC(=O)[C@H](CCCCN)NC(=O)[C@@H]1CCCN1C(=O)[C@H](CCCCN)NC(=O)[C@H](CCCCN)NC(=O)[C@H](CCCCN)NC(=O)[C@H](CCCNC(=N)N)NC(=O)[C@H](CO)NC(=O)[C@H](CS)NC(=O)[C@H](CCCCN)NC(=O)[C@H](C)NC(=O)[C@@H](N)Cc1ccc(O)cc1)C(=O)N[C@@H](CCCCN)C(=O)N[C@@H](C)C(=O)O,Mitogen-activated protein kinase 14,"enzyme activity, inhibitor, fluorescence",,pH 7.4,IC50,1.89 µM
O=C(CCc1ccc(Br)cc1)N[C@H]1CCOC1=O,"lasR (Pseudomonas aeruginosa, UniProt P25084)","reporter gene, antagonist","Escherichia coli, JLD271 with LasR plasmid",with: OdDHL 5 nM,IC50,0.54 µM
CN(C)CCCN1C(=O)CSC1c1ccc(F)cc1 (stereo not drawn),"uncharacterized protein (Apis mellifera, UniProt A0A7M6W5G5)","enzyme activity, inhibitor, Ellman",,with: 1 mM acetylthiocholine,IC50,16 µM
Cc1ccc(C2=CCC(C)(C)c3ccc(C(=O)Nc4ccc(C(=O)O)cc4)cc32)cc1,"RARG (Homo sapiens, UniProt P13631)",,,,IC50,2.4 µM
CC(C)C[C@H](NC(=O)[C@H](CCC(N)=O)NC(=O)[C@H](CC(N)=O)NC(=O)[C@H](C)NC(=O)[C@@H](N)Cc1ccc(O)cc1)C(=O)N[C@@H](CCCCN)C(=O)N[C@@H](Cc1ccccc1)C(=O)N[C@@H](CCCNC(=N)N)C(=O)N[C@@H](CCCCN)C(=O)N[C@@H](CCCCN)C(=O)N[C@@H](CCCCN)C(=O)N[C@@H](CC(C)C)C(=O)N[C@@H](CCCCN)C(=O)N[C@@H](Cc1ccccc1)C(=O)N[C@@H](CS)C(=O)N[C@@H](CCCCN)C(=O)O,Mitogen-activated protein kinase 14,"enzyme activity, inhibitor, fluorescence",,pH 7.4,IC50,0.247 µM
CNC(=O)C[C@H](Cc1ccc(F)cc1)NC(=O)[C@@H](Cc1ccc(Cl)cc1Cl)NC(=O)[C@H](N)Cc1ccccc1C#N,"MMP1 (Homo sapiens, UniProt P03956)","enzyme activity, inhibitor",,,IC50,> 10 µM
CN(C)CCCN1C(=O)CSC1c1ccc(Cl)cc1 (stereo not drawn),"uncharacterized protein (Anopheles gambiae, UniProt Q7QFG0)","enzyme activity, inhibitor, Ellman",,with: 1 mM acetylthiocholine,IC50,186 µM
CC(=O)NC1C(O)C=C(C(=O)O)OC1C(O)C(O)CO (stereo not drawn),"Sialidase-3 (Homo sapiens, UniProt Q9UQ49)","enzyme activity, inhibitor",,,IC50,8 µM
O=C(c1cc(Cc2n[nH]c(=O)c3ccccc23)ccc1F)N1CC(CNC2CC2)C1,"PARP11 (Homo sapiens, UniProt Q9NR21)","enzyme activity, inhibitor",,,IC50,> 10 µM
Nc1ccn(C2OC(COP(=O)(O)OP(=O)(O)OP(=O)(O)O)C(O)C2(F)F)c(=O)n1 (stereo not drawn),"pyrG (Escherichia coli, UniProt P0A7E5)",enzyme activity,,"with: 6.0 mM glutamine, 1.0 mM ATP, 0.05 mM UTP",IC50,3.8 µM
CCC1c2ccsc2CCN1C(=O)Cn1cc(C(=O)O)nn1 (stereo not drawn),CTSL,"enzyme activity, inhibitor, FRET",,,IC50,> 100 µM
Cn1c(=O)c(-c2ccccc2Cl)cc2cnc(Nc3cccc(S(C)(=O)=O)c3)nc21,"Calmodulin-domain protein kinase 1, putative (Cryptosporidium parvum, UniProt A3FQ16)","kinase activity, inhibitor",,with: 10 µM ATP,IC50,0.019 ± 0.002 µM
CC(C)C[C@H](NC(=O)[C@H](Cc1ccccc1)NC(=O)[C@H](CCCNC(=N)N)NC(=O)[C@H](C)NC(=O)CNC(=O)[C@@H]1CCCN1)B(O)O,"PSMB6/PSMB7 (Homo sapiens, UniProt P28072+Q99436)","caspase-like activity, inhibitor",,"human proteasome 10 nM, with: z-LLE-AMC",IC50,> 1 µM
Cc1ccc(N2CC3CC(C2)N3)cc1C(=O)NC1(c2ccc3c4c(cccc24)C(=O)N3C)CC1,"Cytochrome P450 2D6 (CYP2D6, Homo sapiens, UniProt P10635)","enzyme activity, inhibitor",,,IC50,> 50 µM
CC(C)[C@H](NC(=O)[C@H](CCCCN)NC(=O)[C@@H](NC(=O)[C@H](Cc1ccc(O)cc1)NC(=O)[C@H](CC(N)=O)NC(=O)[C@H](CCCNC(=N)N)NC(=O)[C@H](CCC(=O)O)NC(=O)[C@H](Cc1c[nH]cn1)NC(=O)[C@H](CCCNC(=N)N)NC(=O)[C@@H](NC(=O)[C@H](C)NC(=O)[C@@H](N)Cc1ccc(O)cc1)[C@@H](C)O)[C@@H](C)O)C(=O)N[C@@H](CC(N)=O)C(=O)N[C@@H](Cc1ccccc1)C(=O)N[C@@H](CS)C(=O)N[C@@H](CCCCN)C(=O)O,Mitogen-activated protein kinase 14,"enzyme activity, inhibitor, fluorescence",,pH 7.4,IC50,94.6 µM
O=C1NC2(CC2)COc2ncc(F)cc2[C@H]2COCCN2c2ccn3ncc1c3n2,,,"Sprague-Dawley rat, female, serum","oral, 2.5 mg/kg/day, 4 weeks daily, end of treatment",glucose,8.29 ± 0.75 mmol/L
COC(=O)CNC(=O)[C@H](CC(C)C)NC(=O)[C@@H](Cc1ccc(O)cc1OC)NC(=O)[C@H](CO)NC(=O)[C@@H](NC(=O)[C@H](CC(C)C)NC(=O)[C@@H](Cc1ccc(O)cc1)NC(=O)[C@H](Cc1ccc(O)cc1)NC(=O)NC(=O)O)[C@@H](O)C(=O)O,"PTPN11 (Homo sapiens, UniProt Q06124, E76K)","phosphatase activity, inhibitor, fluorescence",,"0.5 nM enzyme, with: DiFMUP 100 µM",IC50,45.6 µM
CN(C)S(=O)(=O)c1ccc2nnn(OCc3ccc(C(C)(C)C)cc3)c2c1,CTSL,"enzyme activity, inhibitor, FRET",,,IC50,> 100 µM
O=C(O)CCn1c(=O)oc2cc(Cl)c(Cl)cc21,"KCNA5 (Homo sapiens, UniProt P22460)","ion current, blocker",,,IC50,> 50.1 µM
CSCC[C@H](NC(=O)[C@H](Cc1ccc(O)cc1)NC(=O)[C@H](CCC(N)=O)NC(=O)[C@@H](NC(=O)[C@H](Cc1c[nH]cn1)NC(=O)[C@H](CCC(=O)O)NC(=O)[C@H](C)NC(=O)[C@@H](NC(=O)[C@@H](N)CCC(=O)O)C(C)C)C(C)C)C(=O)O,"MHC-I ELA-A2, horse","binding, competitive radioligand binding",,pH 7,IC50,0.0024 µM
CC[C@H](C)[C@H](NC(=O)[C@H](CCCCN)NC(=O)[C@H](CC(C)C)NC(=O)[C@@H]1CCCN1C(=O)[C@@H]1CCCN1C(=O)[C@@H](NC(=O)[C@H](CCCCN)NC(=O)[C@H](CCCNC(=N)N)NC(=O)[C@@H](NC(=O)[C@H](CCC(N)=O)NC(=O)[C@H](C)NC(=O)[C@@H](N)Cc1ccc(O)cc1)C(C)C)C(C)C)C(=O)N1CCC[C@H]1C(=O)N[C@H](C(=O)N[C@@H](CO)C(=O)N[C@@H](CCCNC(=N)N)C(=O)O)C(C)C,Mitogen-activated protein kinase 14,"enzyme activity, inhibitor, fluorescence",,pH 7.4,IC50,59.9 µM
O=S(=O)(N/N=C/c1ccc(OS(=O)(=O)c2ccc(Br)cc2)cc1)c1cc(Cl)ccc1Cl,CA2,"enzyme activity, inhibitor, absorbance",,,IC50,0.124 µM
C[C@H](N)C(=O)N[C@@H](CS)C(=O)N[C@@H](CC(N)=O)C(=O)N[C@@H](Cc1ccccc1)C(=O)N[C@@H](CO)C(=O)N[C@H](C(=O)N[C@@H](Cc1ccccc1)C(=O)N[C@@H](CS)C(=O)N[C@@H](CCCNC(=N)N)C(N)=O)[C@@H](C)O,"Pyruvate kinase PKM (PKM, Homo sapiens, UniProt P14618)","enzyme activity, inhibitor, fluorometric",,"2 h, 37 °C, enzyme 500 nM",IC50,229 µM
CC[C@H](C)[C@H](NC(=O)[C@@H](NC(=O)[C@H](CC(C)C)NC(=O)[C@H](CCCCN)NC(=O)[C@H](CCCCN)NC(=O)[C@H](Cc1c[nH]cn1)NC(=O)[C@@H](NC(=O)[C@H](CCCNC(=N)N)NC(=O)[C@H](CCCCN)NC(=O)[C@H](CC(C)C)NC(=O)[C@H](CCC(N)=O)NC(=O)[C@H](CCCCN)NC(=O)[C@H](C)NC(=O)[C@@H](N)Cc1ccc(O)cc1)[C@@H](C)O)[C@@H](C)O)C(=O)N[C@@H](CC(N)=O)C(=O)N1CCC[C@H]1C(=O)O,Mitogen-activated protein kinase 14,"enzyme activity, inhibitor, fluorescence",,pH 7.4,IC50,36.4 µM
O=C(O)C(/C=C/c1c(Cl)cccc1Cl)=N\Nc1nc(-c2ccccc2)cs1,"Cholinesterase (BCHE, Equus caballus, UniProt P81908)","enzyme activity, inhibitor",,,IC50,9.14 µM
CCC(C)C1OC2(CCC1C)CC1CC(C/C=C(\C)C(OC3CC(OC)C(OC4CC(OC)C(O)C(C)O4)C(C)O3)C(C)/C=C/C=C3\COC4C(O)C(C)=CC(C(=O)O1)C34O)O2 (stereo not drawn),"Anoctamin-6 (ANO6, Homo sapiens, UniProt Q4KMQ2)","anion channel activity, inhibitor, YFP fluorescence quenching",FRT cells expressing ANO6,,IC50,0.99 ± 0.36 µM
CC[C@H](C)[C@H](NC(=O)[C@H](CC(C)C)NC(=O)[C@H](CCCCN)NC(=O)[C@H](CCC(=O)O)NC(=O)[C@H](CCCCN)NC(=O)[C@H](CCCNC(=N)N)NC(=O)[C@@H]1CCCN1C(=O)[C@H](CCCNC(=N)N)NC(=O)[C@H](CCC(N)=O)NC(=O)[C@H](CCCCN)NC(=O)[C@@H]1CCCN1C(=O)[C@H](C)NC(=O)[C@@H](N)Cc1ccc(O)cc1)C(=O)N[C@H](C(=O)N1CCC[C@H]1C(=O)N[C@H](C(=O)O)[C@@H](C)O)[C@@H](C)CC,Mitogen-activated protein kinase 14,"enzyme activity, inhibitor, fluorescence",,pH 7.4,IC50,41 µM
Cc1ccc(S(=O)(=O)Oc2ccc(/C=N/NS(=O)(=O)c3ccc(Cl)cc3)cc2)cc1,CA2,"enzyme activity, inhibitor, absorbance",,,IC50,0.0342 µM
CN(C)S(=O)(=O)c1ccc2nnn(OCc3cccc4ccccc34)c2c1,CTSL,"enzyme activity, inhibitor, FRET",,,IC50,> 100 µM

# A few entries again:
SMILES,target or system,test,system,conditions,endpoint,value
CN(C)CCCN1C(=O)CSC1c1cccc(Cl)c1 (stereo not drawn),"uncharacterized protein (Anopheles gambiae, UniProt Q7QFG0)","enzyme activity, inhibitor, Ellman",,with: 1 mM acetylthiocholine,IC50,7 µM
O=C(c1cc(Cc2n[nH]c(=O)c3ccccc23)ccc1F)N1CC(CNC2CC2)C1,"PARP11 (Homo sapiens, UniProt Q9NR21)","enzyme activity, inhibitor",,,IC50,> 10 µM
CC[C@H](C)[C@H](NC(=O)[C@H](CCCCN)NC(=O)[C@H](CC(C)C)NC(=O)[C@@H]1CCCN1C(=O)[C@@H]1CCCN1C(=O)[C@@H](NC(=O)[C@H](CCCCN)NC(=O)[C@H](CCCNC(=N)N)NC(=O)[C@@H](NC(=O)[C@H](CCC(N)=O)NC(=O)[C@H](C)NC(=O)[C@@H](N)Cc1ccc(O)cc1)C(C)C)C(C)C)C(=O)N1CCC[C@H]1C(=O)N[C@H](C(=O)N[C@@H](CO)C(=O)N[C@@H](CCCNC(=N)N)C(=O)O)C(C)C,Mitogen-activated protein kinase 14,"enzyme activity, inhibitor, fluorescence",,pH 7.4,IC50,59.9 µM
CN(C)CCCN1C(=O)CSC1c1ccc(Cl)cc1 (stereo not drawn),"uncharacterized protein (Anopheles gambiae, UniProt Q7QFG0)","enzyme activity, inhibitor, Ellman",,with: 1 mM acetylthiocholine,IC50,186 µM
Cc1ccc(C2=CCC(C)(C)c3ccc(C(=O)Nc4ccc(C(=O)O)cc4)cc32)cc1,"RARG (Homo sapiens, UniProt P13631)",,,,IC50,2.4 µM
